Published values gathered from unrelated publications.
Numbers after ± are the reported error. Values after ≈ are worked out from the molar mass of the structure shown.
Sequence of UniProt P05177 (whole entry, looked up): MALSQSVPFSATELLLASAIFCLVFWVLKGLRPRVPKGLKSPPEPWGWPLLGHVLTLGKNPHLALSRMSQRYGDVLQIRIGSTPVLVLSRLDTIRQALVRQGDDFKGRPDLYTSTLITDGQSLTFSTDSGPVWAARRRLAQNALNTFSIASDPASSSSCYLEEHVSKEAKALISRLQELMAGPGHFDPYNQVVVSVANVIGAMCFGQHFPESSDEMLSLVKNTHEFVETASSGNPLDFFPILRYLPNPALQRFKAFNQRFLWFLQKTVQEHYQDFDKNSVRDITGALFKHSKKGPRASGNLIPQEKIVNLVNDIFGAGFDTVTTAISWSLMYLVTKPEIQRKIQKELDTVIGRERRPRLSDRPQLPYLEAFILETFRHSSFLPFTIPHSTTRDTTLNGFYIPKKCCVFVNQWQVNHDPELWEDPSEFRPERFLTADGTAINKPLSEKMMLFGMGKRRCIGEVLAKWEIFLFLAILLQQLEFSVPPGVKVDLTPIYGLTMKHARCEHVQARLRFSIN
Sequence of UniProt P05181 (whole entry, looked up): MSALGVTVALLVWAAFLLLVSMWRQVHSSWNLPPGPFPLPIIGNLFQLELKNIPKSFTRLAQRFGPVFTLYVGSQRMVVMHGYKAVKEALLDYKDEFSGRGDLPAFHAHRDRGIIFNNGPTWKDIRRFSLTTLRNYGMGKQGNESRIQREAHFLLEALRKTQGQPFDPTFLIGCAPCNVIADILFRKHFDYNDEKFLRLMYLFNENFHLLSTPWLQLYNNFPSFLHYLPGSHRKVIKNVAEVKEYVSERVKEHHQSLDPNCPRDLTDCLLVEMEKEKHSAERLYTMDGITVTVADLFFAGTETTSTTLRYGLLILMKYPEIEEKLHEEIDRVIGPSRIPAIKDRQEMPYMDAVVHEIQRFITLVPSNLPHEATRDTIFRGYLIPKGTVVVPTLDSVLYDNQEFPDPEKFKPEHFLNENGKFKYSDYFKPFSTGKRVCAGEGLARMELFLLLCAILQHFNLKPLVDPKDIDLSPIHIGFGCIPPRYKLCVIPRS

Compound | tested on | assay | system | setting | how to read | measurement | value
[64Cu+2].c1cnc(CNCc2ccc(CN3CCCN4CCNCCCN(CC4)CC3)cc2)nc1 | CXCR4 | – | NOD/SCID mouse, U87 and U87-stb-CXCR4 xenografts, lungs | iv, 90 min, no blocking dose, ex vivo | – | tissue uptake | 3.15 ± 0.15 %ID/g
O=C(O)CCC(NP(=O)(O)OCCC[C@@H](NC(=O)CC[C@H](NC(=O)CCCCCNC(=O)c1ccc([18F])cc1)C(=O)O)C(=O)O)C(=O)O (stereo partly shown) | CWR22Rv1 tumour model | – | host not given, kidney | 1 h, tumour-bearing | – | tracer uptake | 18.1 %ID/g
CCC(=O)N(C)c1ccc(Cl)c(Cl)c1 | CHO-WBL | – | – | 0.13 mg/mL, 3 h, with S9 activation | – | cells with one aberration | 0%
CCCCCc1ccc2c(c1O)C(c1ccc(OC)c(OC)c1OC)OC2=O (stereo not shown) | Naegleria fowleri trophozoites | AlamarBlue | ATCC 30215 | 48 h, 37 °C | reference: J774A.1 CC50 over IC50 ATCC 30215 | selectivity index | ≥ 16.6
CN(C)CCSC(=S)N1CCN(C(=O)/C=C/c2coc3cc(F)ccc3c2=O)CC1 | tomato spotted wilt virus | virus inactivation, half-leaf method | Nicotiana glutinosa | tested 31.25 to 500 µg/mL | – | EC50 | 119 ± 6.4 µg/mL (≈ 264 µM)
CC(=O)OC(CCl)Cn1cnc([N+](=O)[O-])c1 (stereo not shown) | Salmonella enterica serovar Typhimurium | Ames test | TA100 | 72 h | – | mutagenic potency | 6.6 ± 0.63 revertants/µg
O=C(O)c1cc(Br)c(O)c(Br)c1 | Cytochrome P450 2E1 (CYP2E1, Homo sapiens, UniProt P05181) | p-nitrophenol hydroxylation, inhibitor | baculosomes | additive 10 nM | – | Ki | 5 nM
CC(=O)OC(CCl)Cn1cncc1[N+](=O)[O-] (stereo not shown) | Salmonella enterica serovar Typhimurium | Ames test, Bernstein slope | TA97 | – | – | mutagenic potency | 2.13 ± 0.14 revertants/µg
N#C[C@@H]1CCCN1C(=O)CNC(=O)c1ccnc2ccc(OCCCN3CCN(C(=O)CCc4ccc5c(c4)CN4CCN6CC(=O)[O][68Ga-]([O]C(=O)C4)([O]5)[O]c4ccc(CCC(=O)N5CCN(CCCOc7ccc8nccc(C(=O)NCC(=O)N9CCC[C@H]9C#N)c8c7)CC5)cc4C6)CC3)cc12 | U-87 MG tumour model | – | host not given, tumour | 2 h, tumour-bearing | – | tracer uptake | 33.1 %ID/g
COc1ccc(C2OC(=O)c3ccc(-c4ccccc4)c(O)c32)c(OC)c1OC (stereo not shown) | Naegleria fowleri trophozoites | AlamarBlue | ATCC 30215 | 48 h, 37 °C | reference: J774A.1 CC50 over IC50 ATCC 30215 | selectivity index | ≥ 39.5
CC(=O)OC(CF)Cn1cnc([N+](=O)[O-])c1 (stereo not shown) | Salmonella enterica serovar Typhimurium | Ames test, Bernstein slope | TA102 | – | – | mutagenic potency | 2.51 ± 0.44 revertants/µg
COc1ccc(-n2c(=O)c(C(=O)C3C(=O)CCCC3=O)nc3ccccc32)cc1 | Oryza sativa var. Kinmaze | crop injury | – | paddy water application, 28 days, transplanted at two-leaf stage | – | ED20 | 6.3 g a.i./10 a
CC=C1C(OC2OC(CO)C(O)C(O)C2O)OC=C(C(=O)OC)C1CC(=O)OCC1OC(OCCc2ccc(O)cc2)C(O)C(O)C1O (stereo not shown) | mouse gut microbiota | anaerobic incubation | male Balb/c mice, intestinal contents, anaerobic medium | 10 µg/mL, 30 min | – | metabolized fraction | 88.1%
[64Cu+2].c1ccc(CNCc2ccc(CN3CCCN4CCNCCCN(CC4)CC3)cc2)nc1 | CXCR4 | – | NOD/SCID mouse, U87 and U87-stb-CXCR4 xenografts, muscle | iv, 240 min, ex vivo | – | tissue uptake | 0.34 ± 0.02 %ID/g
CCN(CC)CCCSC(=S)N1CCN(C(=O)/C=C/c2coc3ccc(OC)cc3c2=O)CC1 | tomato spotted wilt virus | viral infection, half-leaf method | Nicotiana glutinosa | 500 µg/mL | – | protective effect | 57.5 ± 5.6%
COc1ccc(C2OC(=O)c3ccc(C)c(O)c32)c(OC)c1OC (stereo not shown) | Naegleria fowleri trophozoites | AlamarBlue | ATCC 30808 | 48 h, 37 °C | reference: J774A.1 CC50 over IC50 ATCC 30808 | selectivity index | ≥ 1.52
N=C(N)NCCC[C@@H]1NC(=O)[C@H](Cc2c[nH]c3ccccc23)NC(=O)[C@@H](CC2CCCCC2)NC(=O)[C@@H]2CCCN2C(=O)[C@@H](NC(=O)CCc2ccccc2)CCCNC1=O | – | – | C57BL/6J mice, plasma | subcutaneous, 1 mg/kg, two-compartment model | – | elimination rate constant | 0.000578 s⁻¹
CCCCCc1ccc2c(c1O)C(c1ccc(OC)c(OC)c1)OC2=O (stereo not shown) | Naegleria fowleri trophozoites | AlamarBlue | ATCC 30215 | 48 h, 37 °C | reference: J774A.1 CC50 over IC50 ATCC 30215 | selectivity index | ≥ 43.2
C=CC(=O)Nc1cc(Nc2nccc(-c3cn(C)c4ccccc34)n2)c(OCC(F)(F)F)nc1N(C)CCN(C)C | Cytochrome P450 1A2 (CYP1A2, Homo sapiens, UniProt P05177) | enzyme activity, inhibitor | human, liver microsomes | 10 µM | – | activity vs control | 73.3%
